Literature values that unrelated publications cite.
Numbered parts are unrelated; values within a part may stem from several laboratories. Several values in a cell are separate wells, animals, samples, runs or records. ± gives the spread as reported.

Sample 1 — organism: SARS-CoV-2; read-out: cytopathic effect; cell line: Caco-2; tested at: 10 µM; endpoint: inhibition
O=C(O)c1ccc(SSc2ccc(C(=O)O)cn2)nc1: -4.1%
O=C(O)CCCCCCCCCCCCCCc1ccc(I)cc1: 3.3%
CC(C)N(CCC(=O)c1ccc2ccccc2c1)Cc1ccccc1: 4.8%
CC1=CC(=O)c2ccccc2C1=O: 4.3%
CN(C)CCNc1nc2cc(O)ccc2c2c1C(=O)c1ccccc1-2: 92.6%
CN1CC[C@@]2(C)c3cc(O)ccc3N(C)[C@@H]12: -3.8%
COc1cc(C[C@@H]2NCCc3cc(O)c(O)cc32)cc(OC)c1OC: -3.2%
O=C(O)c1ccccc1-c1c2cc(Br)c(=O)cc-2oc2[c]([Hg][OH])c(O)c(Br)cc12: 16%
COc1ccnc(C[S+]([O-])c2nc3ccc(OC(F)F)cc3[nH]2)c1OC (stereo not shown): 2.8%
CCOc1ccc(Nc2nc(-c3c(C)nc4ccccn34)cs2)cc1: 65.2%
CCCCCCCCCCCCCCCC[n+]1ccn(Cc2ccccc2)c1C: 37.7%
CN1CCN2c3ccccc3Cc3ccccc3C2C1 (stereo not shown): -1.4%
CC[C@H](CO)Nc1nc(NCc2ccc(-c3ccccn3)cc2)c2ncn(C(C)C)c2n1: 76.6%
Oc1cc2c(cc1O)[C@H]1c3ccccc3CN[C@@H]1CC2 (racemic): -0.754%
CCC(=O)OCN1C(=O)C=CC1=O: -3%
Cc1ccc(-n2sc(=O)n(Cc3ccc(F)cc3)c2=O)cc1: -0.638%
Nc1nnc(Sc2ncc([N+](=O)[O-])s2)s1: 3.5%
O=[N+]([O-])C=Cc1ccc2c(c1)OCO2: -5.4%

Mixed results
gag-pol C1203S/F1286D/F1332H integrase catalytic core domain: Gag-Pol polyprotein, integrase catalytic core domain (gag-pol, Human immunodeficiency virus 1, UniProt P12497, C1203S/F1286D/F1332H)
Nc1ccn(C[C@@H](CO)OCP(=O)(O)O)c(=O)n1 — IC50 (Vaccinia virus; viral replication; HFF human foreskin fibroblasts, WR): 18 µM and 28 µM
O=C1Nc2ccc(Cl)cc2[C@@](C#CC2CC2)(C(F)(F)F)O1 — IC50 fold change (HIV-1 reverse transcriptase K101Q; reference: K101Q over wild type): 1.8 fold
O=C[C@H](C[C@@H]1CCNC1=O)NC(=O)[C@H](Cc1cccc(F)c1)NC(=O)c1cc2ccccc2[nH]1 — IC50 (Replicase polyprotein 1ab, main protease (rep, Severe acute respiratory syndrome coronavirus 2, UniProt P0DTD1); inhibitor): 0.04 ± 0.002 µM
CC[C@H](C)[C@@H]1NC(=O)[C@@H](NC(=O)[C@H](CCC(=O)O)NC(=O)[C@H](CC(N)=O)NC(=O)[C@@H](N)CO)CSSC[C@@H]2NC(=O)[C@@H]3CSSC[C@@H](C(=O)N[C@H](C(=O)N4CCC[C@H]4C(=O)N[C@H](C(=O)N4CCC[C@H]4C(=O)NCC(=O)O)[C@@H](C)CC)C(C)C)NC(=O)[C@H](C(C)C)NC(=O)[C@H](CCC(=O)O)NC(=O)[C@H](Cc4ccccc4)NC(=O)[C@H](CO)NC(=O)[C@H](Cc4c[nH]cn4)NC(=O)[C@H](CCCNC(=N)N)NC(=O)[C@H](CCCNC(=N)N)NC(=O)[C@H](CCCCN)NC(=O)[C@H](Cc4ccc(O)cc4)NC(=O)[C@H](CSSC[C@H](NC(=O)[C@H](CO)NC(=O)[C@H](CC(C)C)NC(=O)[C@H](Cc4c[nH]c5ccccc45)NC(=O)[C@H](CCCCN)NC(=O)[C@H](CCCNC(=N)N)NC1=O)C(=O)N[C@@H](C(C)C)C(=O)N[C@@H](CC(=O)O)C(=O)N[C@@H](CCCNC(=N)N)C(=O)N[C@@H](CCCCN)C(=O)N[C@@H](CC(N)=O)C(=O)N[C@@H](CC(=O)O)C(=O)N3)NC(=O)[C@H](CCC(=O)O)NC(=O)[C@H](CC(C)C)NC(=O)CNC(=O)[C@H](CCC(=O)O)NC2=O — IC50 (rat ASIC1a; inhibitor): 1 ± 0.1 µM
COCCn1c2c([n+](Cc3cnccn3)c1C)C(=O)c1ccccc1C2=O — EC50 (SARS-CoV-2; antiviral activity): 0.17 µM
CCCCCCCCCCCCCCCCOCCOP(=O)(O)COC(CO)Cn1cnc(N)nc1=O (stereo not shown) — IC50 (Vaccinia virus; viral replication; HEL human embryonic lung fibroblasts, Lederle): 0.037 µg/mL
O=C(c1cc(O)c(O)c(O)c1)c1ccc(O)c(O)c1O — inhibition (SARS-CoV-2; viral cytopathic effect; Vero E6; 20 µM): -0.04%
C[C@H](NC(=O)[C@@H](c1cccnc1)N(C(=O)c1ccco1)c1ccc(-c2ccccc2)cc1)c1ccccc1 — EC50 (SARS-CoV-2; antiviral activity): 1.3 µM
CN(Cc1ccccc1C(=O)NCC1CCCCC1)Cc1ccc2c(c1C(=O)O)OCO2 — Kd (gag-pol C1203S/F1286D/F1332H integrase catalytic core domain; binding, SPR): > 2000 µM
CC(C)(C#Cc1ccc(-c2ccc(Cl)c3c(NS(C)(=O)=O)nn(CC(F)(F)F)c23)c([C@H](Cc2cc(F)cc(F)c2)NC(=O)Cn2nc(C(F)(F)F)c3c2C(F)(F)[C@@H]2C[C@H]32)n1)S(C)(=O)=O — EC50 (HIV-1; viral replication): > 10 µM
CC(C)(C)c1cc(C(=O)/C(C#N)=N/Nc2cccc(Cl)c2)no1 — IC50 (EPAC2 (full-length); GEF activity, inhibitor; together with: cAMP 20 µM): 4.4 µM
C[C@@H]1Cc2c(Cl)cc(C(=O)N[C@@H](Cc3ccccc3)C(=O)O)c(O)c2C(=O)O1 — maximum concentration in eggs (laying hens, egg; oral, in feed, 5 mg/kg feed, 21 d): 7.4 µg/kg
O=C(/C=C/c1ccc(O)c2oc(-c3ccc(O)c(O)c3)cc12)O[C@H](Cc1ccc(O)c(O)c1)C(=O)O — EC50 (SARS-CoV-2; viral replication): 0.32 µM
Cc1ccc(N2CCN(C)CC2)cc1C(=O)NC1(c2cc(-c3cnn(C)c3)nc3ccccc23)CC1 — Ki (Replicase polyprotein 1a, papain-like protease (Severe acute respiratory syndrome coronavirus 2, UniProt P0DTC1)): 0.002 µM
Nc1ccn(C[C@@H](CO)OCP(=O)(O)O)c(=O)n1 — IC50 (vaccinia virus): 46.2 µM
CNP(=O)(OC)Oc1ccc(C(C)(C)C)cc1Cl (stereo not shown) — logD (pH 7.4): 3.24
C=CC/C=C\C=C/[C@H]1O[C@H]2C[C@H]3O[C@H]4CC[C@H]5O[C@H]6C[C@@]7(C)O[C@@]8(C)[C@@H](O)C[C@H](CCCO)O[C@@H]8C[C@@H]7O[C@@H]6C[C@@H]5O[C@]4(C)C[C@]3(C)O[C@@H]2C=C[C@]1(C)O — IC50 (Kv2.1 V404T; potassium current, inhibitor; previously reported): 0.504 ± 0.028 µM
O=C(c1cc(=O)[nH]c2ccccc12)N1CCN(c2ccc(Cl)c(Cl)c2)CC1CN1CCOCC1 (stereo not shown) — EC50 (SARS-CoV-2; antiviral activity): 0.82 µM
CC(C)(C)[C@H](NC(=O)C(F)(F)F)C(=O)N1C[C@H]2[C@@H]([C@H]1C(=O)N[C@H](C#N)C[C@@H]1CCNC1=O)C2(C)C — concentration over susceptibility (SARS-CoV-2; concentration not given, Paxlovid regimen): 10 fold
COc1ccc([C@H]2c3[nH]c4ccc(Cl)cc4c3CCN2C(=O)Oc2ccc(Cl)cc2)cc1 — EC90 (SARS-CoV-2; viral replication, refers to: viral titre; cell culture): 0.053 µM
COc1cc2c(cc1NC(=O)c1ccc(C(C)(C)C)cc1)CCCC2 — EC90 (chikungunya virus; viral replication): 0.27 µM
CCC(CC)COC(=O)[C@H](C)N[P@](=O)(OC[C@H]1O[C@@](C#N)(c2ccc3c(N)ncnn23)[C@H](O)[C@@H]1O)Oc1ccccc1 — IC50 (SARS coronavirus; viral replication; literature value): 0.069 µM
CC[C@H](C)NC(=O)c1ccccc1CN(C)Cc1ccc2c(c1C(=O)O)OCO2 — Kd (gag-pol C1203S/F1286D/F1332H integrase catalytic core domain; binding, SPR): > 2000 µM
CCn1ccc(-c2cc(-c3cnn(C)c3)cc([C@@H](C)NC(=O)c3cc(OCCN(C)C)ccc3C)c2)n1 — EC50 (SARS-CoV-2; viral replication): 0.44 µM
C[C@@H]1Cc2ccc(C(=O)N[C@@H](Cc3ccccc3)C(=O)O)c(O)c2C(=O)O1 — cytotoxic concentration ratio (chicken embryonic meningeal fibroblasts; reference: compound over ochratoxin A): 19
